Measured values gathered from unrelated publications.
Numbered parts are unrelated; each lists some results of a single study.

Set 1 — method: competition protein-binding microarray; form: double-stranded DNA, one strand shown; matrix: in vitro; tested at: 2 µM; with: Cbf1 competitor, 0.05 µM; reading: higher = stronger binding; constant ends, left off below: … GTCTTGATTCGCTTGACGCTGCTG
Target: Phosphate system positive regulatory protein PHO4, full length, GST-tagged (PHO4, Saccharomyces cerevisiae, UniProt P07270, residues 1-312)
Setting: whole 60-bp probe, lowest competitor level
Target sequence (chain): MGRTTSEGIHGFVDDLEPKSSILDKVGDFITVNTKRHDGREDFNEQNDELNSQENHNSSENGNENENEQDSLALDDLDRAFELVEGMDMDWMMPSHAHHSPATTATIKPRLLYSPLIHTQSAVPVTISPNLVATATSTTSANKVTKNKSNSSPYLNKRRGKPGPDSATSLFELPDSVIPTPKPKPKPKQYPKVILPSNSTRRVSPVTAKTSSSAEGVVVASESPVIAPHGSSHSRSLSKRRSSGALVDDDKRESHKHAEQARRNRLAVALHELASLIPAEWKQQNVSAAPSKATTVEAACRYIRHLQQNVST
| Sequence | fluorescence intensity |
| --- | --- |
| ATCTTATTAATTCATGGAAGGCATTGAACTCAACAG | 4430 a.u. |
| CTAACGAAGGTTTTTCACGTGGATTACAAGCCAAGT | 14000 a.u. |
| GGAGTAGACACACTACACGTGATGGCAGTAGGAGAG | 14400 a.u. |
| TAGGATCGACTTACCCACGTCCAACTGCTGTTGACG | 5190 a.u. |
| AAACAAATGGTAATCCACGTGAATAATTGAGACAAA | 15100 a.u. |
| AAATTACTAAGTTGCATCGTGGGTGACGCCGTATGA | 12500 a.u. |
| AAGAAATTACCGTCGCTCGTGATGGGTTTGCAAAAA | 6190 a.u. |
| CTTTCCCGATCTTTTCACGTGCGATTAGCACATTTG | 16200 a.u. |
| GAAGCGTTGCCCTATGACGTGCAAAGTACCGATATT | 5620 a.u. |
| AATGCAAACTGGGAGAATGTGACTCGATCGAGGAAA | 4400 a.u. |
| TAACAGTATATCCGACACGCACGGCAAGACCACTTA | 7480 a.u. |
| GTCAGAAAGCCGGGTAAGGTGTGCCAGCGCGAGTAA | 5840 a.u. |
| CATACCCAACCTTGGGCGGTGGGTGAAGATATTTGT | 4060 a.u. |
| CGTCCTAGTGATTGTCTTGTGGGTGCCATGAGGAAG | 8040 a.u. |
| GCGCAACAAATACCTGATGTGACGCCTACCCTTTGG | 3240 a.u. |
| TACATTTATGGCCTGTTCGTGATGGGTCAGCGAGCC | 4570 a.u. |
| CGTAGACTTTTACGTCAGCTGAGAAAGAATATTTGT | 2870 a.u. |
| TCCTTCTTACCTTGGCGCATGATGTTGTTTGTGATG | 8490 a.u. |
| AAAGCGGTAATTTGTCACTCCACTTCACATATCTAT | 3690 a.u. |

Set 2 — method: protein-binding microarray; form: double-stranded DNA, one strand shown; matrix: in vitro; tested at: not given; reading: higher = stronger binding
Target: Transcriptional repressor CTCF (CTCF, Homo sapiens, UniProt P49711, residues 1-727, full length assumed)
UniProt P49711, sequence (whole entry, looked up): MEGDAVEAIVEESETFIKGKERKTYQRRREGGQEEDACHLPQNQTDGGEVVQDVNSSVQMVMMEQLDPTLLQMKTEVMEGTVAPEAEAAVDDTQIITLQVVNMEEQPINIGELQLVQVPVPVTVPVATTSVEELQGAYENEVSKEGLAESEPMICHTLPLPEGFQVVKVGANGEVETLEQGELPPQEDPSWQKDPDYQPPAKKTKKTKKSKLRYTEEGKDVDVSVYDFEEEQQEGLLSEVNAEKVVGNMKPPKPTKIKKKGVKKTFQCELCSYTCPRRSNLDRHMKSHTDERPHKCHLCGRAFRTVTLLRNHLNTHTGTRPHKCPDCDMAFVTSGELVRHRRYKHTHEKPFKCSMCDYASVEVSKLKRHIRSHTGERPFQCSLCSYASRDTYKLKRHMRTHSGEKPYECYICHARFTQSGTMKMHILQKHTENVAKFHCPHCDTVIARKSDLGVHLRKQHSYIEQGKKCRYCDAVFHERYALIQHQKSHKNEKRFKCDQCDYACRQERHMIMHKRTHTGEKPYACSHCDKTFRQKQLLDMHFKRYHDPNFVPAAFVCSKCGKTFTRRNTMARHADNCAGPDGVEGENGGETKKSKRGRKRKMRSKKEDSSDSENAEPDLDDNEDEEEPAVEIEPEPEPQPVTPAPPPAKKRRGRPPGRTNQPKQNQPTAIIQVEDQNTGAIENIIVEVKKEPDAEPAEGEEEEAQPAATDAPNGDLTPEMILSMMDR
Setting: k-mer, scored over probes, only values ≥0.25
| Sequence | E-score |
| --- | --- |
| CGTACGTA | 0.259 |
| ATATATGA | 0.283 |
| AACAATCA | 0.274 |
| TTATACAA | 0.252 |
| TGTAATAA | 0.309 |
| CGAATAAC | 0.266 |
| TACCGCTA | 0.257 |
| GGCGCGCA | 0.348 |
| AGGTATAT | 0.29 |
| ATATAAGA | 0.325 |
| AGTAAAAA | 0.257 |
| CCCTAGGG | 0.336 |
| ATAATCAG | 0.358 |
| TACACCTA | 0.339 |
| AAATATAA | 0.321 |
| CCCTATCG | 0.267 |
| CGTGGCGC | 0.372 |
| AATAACAC | 0.294 |
| CATTTATA | 0.296 |
| GAGTAATA | 0.32 |
| AACAGTAT | 0.311 |
| ATGAAAAT | 0.283 |
| TATGCGCA | 0.422 |

Set 3 — method: RNA Bind-n-Seq; form: RNA; matrix: in vitro; tested at: 365 nM; baseline: no-protein control; reading: higher = stronger binding
Target: RNA binding protein fox-1 homolog 2, RRM domain, GST-SBP tag (RBFOX2, Homo sapiens, UniProt O43251-10, residues 100-194)
Setting: natural RNA segment, single round, ends assumed
Constant ends, left off below: GGGAGUUCUACAGUCCGACGAUC … UGGAAUUCUCGGGUGCCAA
Residues (chain): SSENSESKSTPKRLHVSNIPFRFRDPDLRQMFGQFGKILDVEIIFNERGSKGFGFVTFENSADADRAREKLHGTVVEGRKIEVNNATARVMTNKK
| Sequence | RBNS enrichment (R) |
| --- | --- |
| CGUCCUUGCAUUCCGCUGGCUGACCUGUUAGACCUGUCCUUGUGAAUGCCACCGUUUCCUCUAAGACUGGCCAUUAAUGUUUCGUCGGCGGAAGUCGCUCUCCUGGGAGG | 0.367 |
| AUGGCCAUUCUACCCAGAUAGGUUUUAGCUUAUAUAUAGGACAUCAGAUUCCCUGGAAUCCUUGGUUCAGGAAGGUGCUUGGGAAAGGGGUGUAGCCAGAAUAUUUUUUC | 0.543 |
| AAUGGUUAAACUAAAGAGCUUCUGCACAGCAAAAGAAACUACCAUCAGAGUGAACAGGCAACCUACAACAUGGGAGAAAAUUUUCGCAACCUACUCAUCUGACAAAGGGC | 0.3 |
| CUGGCUUUUCCUCACAAAGAAUGUCUAGACAAACAGCAGCUUAGUCUCCUGACACCUCUUGUGGGGUGCAUGUUCCUGCUCCAGGUAUGCUGUUCAUGUGGAUUCAUUCC | 3.83 |
| CAAUGGUGACUGAUCUCGAAUCAGGUCUUUUCCUGCAAGGACUAUGGAGUUCCAUUCUUGACAUCUACUUUGGACCAAGGAGCAUCCCUAGUUCUUCAUAGGGACUCUUA | 0.252 |
| CUCUUACCUCCAGGCUUUGGUGCUUAACACAAAAUGACUGCAGAUGCCUCUCUGGAAGCCCUAGGCUCCAGGUGCUAUCUCUGUGGGAAGCAGCUACCUAAUUGGCAGGC | 0.981 |
| CCAUAUUUGUAACUAUCAACUUUUAAAACUUUUAACGUUUUUGUUACAUGCAUUGUAAUUCUGCUUUGUCUAUAAGAUAUGGUCAAGUACAGCUCUGUGAAAGUUCUGAU | 0.304 |
| UGAAAGCCCUGACUUGGUUCUUGGCUUCUACUGUACUAGUUACUAGUUACUGGUACUGUUGCCAAGCAAUCUGCUUGGAAUUUGUGGAUCCCUGCUGUUCCCUAAUCCCA | 0.202 |

Set 4 — method: protein binding microarray; form: double-stranded DNA, one strand shown; matrix: in vitro; tested at: not given; baseline: not given; reading: higher = stronger binding
Target: Histone acetyltransferase KAT6A, winged helix 2, GST fusion (KAT6A, Homo sapiens, UniProt Q92794, residues 85-181)
Setting: 8-mer, flanks averaged, mean of 2 arrays, mostly near background
Residues (chain): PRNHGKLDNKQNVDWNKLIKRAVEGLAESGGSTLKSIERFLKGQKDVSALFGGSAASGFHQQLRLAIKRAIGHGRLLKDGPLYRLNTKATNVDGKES
| Sequence | E-score |
| --- | --- |
| ATAATCAA | 0.0388 |
| CGCTAGCA | 0.0329 |
| ATCGGTCG | 0.0893 |
| AGCTTACA | 0.0728 |
| GCTCTTAA | 0.106 |
| ATCAGCGC | -0.00233 |
| AAAGTCGG | -0.0162 |
| CACGAAAG | -0.00743 |
| AGTTGCAT | -0.0485 |
| CCGAAGAG | 0.111 |
| GGGCAGTA | -0.0915 |
| AGAGCACG | 0.0312 |
| AATCGGCA | 0.184 |
| TCACAACA | 0.112 |
| ACGAGTCT | -0.185 |
| AGTACGGC | 0.0763 |
| GCACAATA | -0.079 |
| CCGTTATC | -0.106 |
| TGGATACA | -0.0831 |
| GCGACGGA | 0.0324 |
| CCCAGTAC | -0.0469 |
| ACCCCGAG | -0.0497 |
| CTGGAATC | -0.172 |
| CCCTCTCA | -0.00752 |
| TGCCACCA | -0.0601 |

Excerpt of the above (set 2):
| Sequence | E-score |
| --- | --- |
| CGTACGTA | 0.259 |
| ATATATGA | 0.283 |
| AACAATCA | 0.274 |
| TTATACAA | 0.252 |
| TGTAATAA | 0.309 |
| CGAATAAC | 0.266 |
| TACCGCTA | 0.257 |
